Experimental data gathered from unrelated publications.
Every numbered part comes from another study and shows a few of its results, in no order.

Sample 1
Target: TAR DNA-binding protein 43, full length, His tag (TARDBP, Homo sapiens, UniProt Q13148, residues 1-414)
Technique: RNA Bind-n-Seq
Form: RNA
Sample: in vitro
Concentration: 20 nM
Setting: 6-mer, flanks averaged, single round
Together with: 150 mM LiCl
Relative to: input library
Reading: higher = stronger binding
Sequence | 6-mer enrichment (R)
AGGUAU | 1.02
CUGGUG | 1.12
UCUAGU | 0.913
UAGUGC | 1.01
GCCAUA | 0.908
AUCUGC | 0.851
UCAGUA | 0.885

Sample 2
Target: Ras GTPase-activating protein-binding protein 1, RRM domain (G3BP1, Homo sapiens, UniProt Q13283)
Sequence of UniProt Q13283 (whole entry, looked up): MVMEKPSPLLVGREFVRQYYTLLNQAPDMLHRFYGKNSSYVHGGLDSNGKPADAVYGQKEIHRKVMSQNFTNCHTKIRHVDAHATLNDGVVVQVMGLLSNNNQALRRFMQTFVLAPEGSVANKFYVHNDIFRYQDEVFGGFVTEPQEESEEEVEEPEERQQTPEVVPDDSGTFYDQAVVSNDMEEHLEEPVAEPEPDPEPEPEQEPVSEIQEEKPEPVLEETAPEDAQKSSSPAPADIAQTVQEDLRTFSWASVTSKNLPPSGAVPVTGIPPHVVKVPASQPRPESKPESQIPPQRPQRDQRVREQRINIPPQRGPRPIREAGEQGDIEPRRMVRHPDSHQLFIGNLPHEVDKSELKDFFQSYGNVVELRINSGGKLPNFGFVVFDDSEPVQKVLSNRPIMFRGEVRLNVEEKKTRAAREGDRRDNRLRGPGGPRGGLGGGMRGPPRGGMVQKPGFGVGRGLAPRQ
Technique: RNA Bind-n-Seq
Form: RNA
Sample: in vitro
Concentration: 1 µM
Setting: whole 134-nt RNA, ends assumed
Together with: 150 mM KCl
Relative to: input library
Reading: higher = stronger binding
Sequence | log2 enrichment
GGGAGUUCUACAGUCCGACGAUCCUGUGCUACACAUCGUAUGUACCGAAUCGGGGAAAAAAAGGAAAAAAAGGAAAAAAAGGGGAAAGUAUUAUGUUACGCCGUUCGGAUCUGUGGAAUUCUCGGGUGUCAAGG | 0.0202
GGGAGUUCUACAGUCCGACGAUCUAACUUUCGAGGAGGAUCUGAUGGAUAUGGCAGUGGACGUGGAUUUGGGGAUGGCUAUAAUGGGUAUGGAGGAGGACCUGGAGGUGGCAAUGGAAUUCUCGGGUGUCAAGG | -0.738
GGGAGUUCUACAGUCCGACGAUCUCCUGUGCUACACAUCGUAUGUACCGAAUCGGCCCCCCGGGGCCCCCCGGGCCCCCCGGAAAGUAUUAUGUUACGCCGUUCGGAUCUGCAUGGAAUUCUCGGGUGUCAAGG | -0.335
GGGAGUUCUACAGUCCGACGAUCUCCUGUGCUACACAUCGUAUGUACCGAAUCGGAAAAAAGGAAAAAAGGGAAAAAAGGGGAAAGUAUUAUGUUACGCCGUUCGGAUCUGCAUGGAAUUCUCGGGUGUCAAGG | 0.0107
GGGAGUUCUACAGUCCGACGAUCACCAUGCAGGUGGGCAUCUUAGGGAAGUGGGGCAAGGGGGGGAUAGGGAGGGGGGUAACACUUUGGGAACAGGUGGUCCCAGGUCGUUUCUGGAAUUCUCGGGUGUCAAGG | -0.432
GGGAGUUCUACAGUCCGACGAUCCCUGUGCUACACAUCGUAUGUACCGAAUCGGGGUUUUUGGGGAAAAAAAGGGGUUUGGGGAAAGUAUUAUGUUACGCCGUUCGGAUCUGCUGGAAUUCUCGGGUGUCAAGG | 0.675
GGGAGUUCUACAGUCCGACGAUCUUGCUAAUCUAUAAAUUUUUUUUAUAUGAAAUAGCUCAUAGUCGGAAGCCGGCACCCUCAAAUGAGCCCGAAUAUCUAUGUAAAUGGAUGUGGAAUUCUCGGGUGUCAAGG | -1.32

Sample 3
Substance: PhoQ, residues 284 288 289 292 302 303 GNNTDL
Technique: Sort-seq
Refers to: YFP reporter
Sample: E. coli
Setting: PhoQ-PhoP variant library
Together with: 10 µM Mg2+
Relative to: high Mg2+ state
Reading: higher = stronger signaling
target | fold induction
PhoP, residues 12 14 15 18 19 HHYTI (Escherichia coli, UniProt P23836) | 3.58
PhoP, residues 12 14 15 18 19 AYFRS (Escherichia coli, UniProt P23836) | 1.39
PhoP, residues 12 14 15 18 19 SFCSL (Escherichia coli, UniProt P23836) | 3.08

Sample 4
Target: Phosphate system positive regulatory protein PHO4, full length, GST-tagged (PHO4, Saccharomyces cerevisiae, UniProt P07270, residues 1-312)
Technique: competition protein-binding microarray
Form: double-stranded DNA, one strand shown
Sample: in vitro
Concentration: 2 µM
Setting: whole 60-bp probe, lowest competitor level
Together with: Cbf1 competitor, 0.05 µM
Reading: higher = stronger binding
Construct (chain): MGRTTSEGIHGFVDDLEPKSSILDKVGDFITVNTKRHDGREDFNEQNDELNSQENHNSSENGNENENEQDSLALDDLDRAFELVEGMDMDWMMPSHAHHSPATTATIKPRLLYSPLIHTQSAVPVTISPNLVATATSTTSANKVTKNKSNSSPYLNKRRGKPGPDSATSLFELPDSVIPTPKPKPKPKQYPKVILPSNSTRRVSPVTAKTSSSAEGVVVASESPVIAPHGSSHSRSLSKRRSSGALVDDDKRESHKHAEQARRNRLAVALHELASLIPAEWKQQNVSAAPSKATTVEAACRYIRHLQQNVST
Sequence | fluorescence intensity [a.u.]
CGTCCTAGTGATTGGCTCGTGGGTGCCATGAGGAAGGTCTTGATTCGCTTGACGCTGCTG | 10300
GGTAATCCCTAAGAACACATGCCCATAGTGGAAGATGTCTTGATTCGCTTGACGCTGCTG | 9830
CGTCCTAGTGATTGCAAGGTGGGTGCCATGAGGAAGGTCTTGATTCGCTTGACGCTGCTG | 6530
CGTCCTAGCGATTGAGACGTGGGTGCCATGAGGAAGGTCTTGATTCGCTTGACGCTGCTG | 8360
TGCGCAACAACTTGTAATGTGGGTGTATGTCTAGAAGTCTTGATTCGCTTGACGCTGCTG | 5300
CGTCCTAGTGATTGCACCGTGGGTGCCATGAGGAAGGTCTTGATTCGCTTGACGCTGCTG | 10800
TGGTTACAAGATATACGCGTGACTCGTTTTTTATTTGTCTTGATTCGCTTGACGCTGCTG | 8480
TATTCTAGTTAGCGTCACCTGATGCAGAATTGGCGGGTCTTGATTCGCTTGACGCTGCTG | 3780
AAGATGGCAGACGACCACGTGTAGGATCCCTAGTTCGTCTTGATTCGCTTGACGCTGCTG | 17200
AATTGAAACCTCCGTCACGTTTTCTGATAATGTTGCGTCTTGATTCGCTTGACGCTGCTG | 12800

A few entries again (sample 3):
target | fold induction
PhoP, residues 12 14 15 18 19 HHYTI (Escherichia coli, UniProt P23836) | 3.58
PhoP, residues 12 14 15 18 19 AYFRS (Escherichia coli, UniProt P23836) | 1.39
PhoP, residues 12 14 15 18 19 SFCSL (Escherichia coli, UniProt P23836) | 3.08
